# Experimental data gathered from unrelated publications.
# Numbered parts are unrelated; each lists some results of a single study. Substitutions count along the parent as printed.

# Series 1 — technique: RNA Bind-n-Seq; molecule type: RNA; medium: in vitro; tested at: 100 nM; reference: input RNA pool; direction: higher = stronger binding
# Target: RING finger protein unkempt homolog, zinc fingers 1-6, SBP tag (UNK, Homo sapiens, UniProt Q9C0B0, residues 30-357)
# UniProt Q9C0B0, sequence (30-357, looked up): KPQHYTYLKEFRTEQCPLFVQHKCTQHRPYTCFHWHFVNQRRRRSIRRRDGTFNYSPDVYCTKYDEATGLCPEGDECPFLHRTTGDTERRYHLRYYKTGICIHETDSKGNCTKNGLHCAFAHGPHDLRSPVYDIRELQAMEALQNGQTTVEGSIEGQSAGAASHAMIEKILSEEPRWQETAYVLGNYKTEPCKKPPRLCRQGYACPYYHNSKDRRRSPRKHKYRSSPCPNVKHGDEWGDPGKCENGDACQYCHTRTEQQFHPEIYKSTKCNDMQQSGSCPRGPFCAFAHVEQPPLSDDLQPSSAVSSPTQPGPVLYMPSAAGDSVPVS
# Notes: RNA with constant flanks, vertebrate orthologous sites, ends assumed
# Constant ends, left off below: GGGAGUUCUACAGUCCGACGAUC … CAACAGAGGAUUGAGCAUCA
Sequence,bound/input enrichment [ratio]
AUUCAUCUCAUUUUAUAUGUCCAAAAUGGCCUUGAAUUUUUAAACAAUUGUAGUUUUAAUUAGAUCUGCCCUUAUGAAGUAUUAUCAGUUCAUCACAGAUAUCUGUCUGAAUUACUUCAG,0.481
CCGGUUGUAUGUGCAUUAUCCACAUUCCUCUCUGUUGUGUUUGGGGACAAAAAAGACAUUUUAGCCUUUUUUAAGGUUAUUGUUUAAUUUAAUGUUAUUUGGUUGCAUGAAGUUGCCCUU,0.43
CAGUCCCCUGGGCUGGGACAGAUUUUUUUUUAACGUCUUGAAACUUAAAUUCUGUGCUUGUAGGAGACUGUAACCUUUUUGUCUUUUUUUUUUUUUUUACACGAAACAACCUCCACCUCC,0.771
GCUGUUAAUGCACUGUAUUCCAGGCAUCGUCUGAUUUUUAGUGUAAUCUAGGAGAUUUUAUAAUUUUAUUUUAAUGAAGUAUGGAUUGAUGCAAAGUUGUUAGCAGUCUGUAGUCUUUUA,1.1
UUGGGAGCAGCUCUCCAAAUAGAAAUAGUAGUAAAAAAACCAAACAAAAUGAUAUUUGUGUAGAAAAAACGGAAGUUAAAUCAUGGAAAGUAAAUGCUGCCAGUGUUCCAGGUCCUAAAG,1.82
UUCAGUCCCCUGGGCCGGGACAGAUUUUUUUUUAACGUCUUGAAAUUUAAACUGUGCUUGUAGGAGACUGUAACCUUUUUGUCUUUUUUUUUAAACCACCUCUGCCUCCAGUGGCUGUGA,0.679
CUAGUCUUCCUCUUAGGGUCAGCCUCAAAGCUAUAGGAUUUAUGGAUUUAUGACAAUUGUAUAUCUUUUUGGGUUGAGUUUAAUAUUUUUUUAUUAGCCUGUAAAUAAAGAUGGUGUCUU,0.419

# Series 2 — technique: DHFR PCA, deep sequencing; medium: yeast; added: (+)-ABA 0.11 µM; reference: wild-type fitted maximum; direction: higher = stronger binding
# Target: ABI1, truncated, D143A, DHFR fusion (Arabidopsis thaliana)
# Notes: methotrexate growth selection, single substitutions
# Parent: PYL1, truncated, DHFR fusion (Arabidopsis thaliana); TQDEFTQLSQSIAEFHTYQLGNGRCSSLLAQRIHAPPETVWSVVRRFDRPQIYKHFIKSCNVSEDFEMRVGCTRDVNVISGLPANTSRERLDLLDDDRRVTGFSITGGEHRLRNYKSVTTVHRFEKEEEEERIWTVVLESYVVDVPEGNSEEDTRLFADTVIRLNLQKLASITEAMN
Change,relative binding score [%]
I79P,-2.98
N22H,40.9
K126Y,24.2
R46K,0.31
S87F,30.2
K116E,-3.24
T160H,11.4
Y141Q,2.09
S150P,10.6
V76Q,-7.72
E152N,0.957
D97E,53.2
V62M,11.9
F15M,-0.803

# Series 3 — target: CCNE2, cyclin fold, Cln2 fusion (human); technique: yeast growth competition, sequencing; medium: yeast; notes: weak parent motif; reference: not given; direction: higher = stronger binding
# Parent: SLBP docking peptide (human); ARYKRKLLINDFG
Change,normalised enrichment score
AMYKRKLLINDFG [R2M],1.15
ARVKRKLLINDFG [Y3V],1.18
CRYKRKLLINDFG [A1C],0.317
ARYKRKLLQNDFG [I9Q],-0.183
ARYKRKLCINDFG [L8C],0.398
ARYKRKLLIQDFG [N10Q],0.832
AEYKRKLLINDFG [R2E],0.433
ARYKRKTLINDFG [L7T],-0.217
ARYKRKLLINDHG [F12H],0.197
ARYKRMLLINDFG [K6M],0.293

# Mixed results
Molecule,target,assay,test system,setting,scale,endpoint,result
"PhoQ, residues 284 288 289 292 302 303 TTSMTC","PhoP, residues 12 14 15 18 19 NMSFL (Escherichia coli, UniProt P23836)","Sort-seq, refers to: YFP reporter",E. coli,"PhoQ-PhoP variant library, added: 10 µM Mg2+","reference: high Mg2+ state, higher = stronger signaling",fold induction,8.95

# A few entries again (series 2):
Change,relative binding score [%]
Y141Q,2.09
S150P,10.6
